Experimental data gathered from unrelated publications.
Lines come from different studies, so protocols differ.
Organism: Staphylococcus aureus

For CC(C)CCCCCCCCC/C=C/C(=O)N[C@@H](CC(=O)O)C(=O)N[C@H]1CNC(=O)[C@@H]2CCCN2C(=O)[C@H](C(C)C)NC(=O)[C@@H](CN)NC(=O)CNC(=O)[C@H](CC(=O)O)NC(=O)CNC(=O)[C@H](CC(=O)O)NC(=O)CNC(=O)[C@H]2CCCCN2C1=O, the MIC was 8 mg/L (MRSA USA300; 16 h, 37 °C, added: Ca2+ 10 mM).
CC[C@H](C)[C@H](N)C1=N[C@H](C(=O)N[C@@H](CC(C)C)C(=O)N[C@H](CCC(=O)O)C(=O)N[C@H](C(=O)N[C@H]2CCCCNC(=O)[C@H](CC(N)=O)NC(=O)[C@@H](CC(=O)O)NC(=O)[C@H](Cc3c[nH]cn3)NC(=O)[C@@H](CC(C)C)NC(=O)[C@H]([C@@H](C)CC)NC(=O)[C@@H](CCCN)NC2=O)[C@@H](C)CC)CS1 gave an MIC of 4 mg/L (USA300 MRSA; 18 h, 37 °C, added: ZnSO4 0.3 mM).
The MIC of CC(C)C[C@@H]1NC(=O)[C@H](C)NC(=O)[C@@H]2NC(=O)[C@H](CO)NC(=O)[C@@H](CCCCN)NC(=O)[C@H](NC(=O)[C@@H](N)Cc3ccccc3)CCCCCCCC[C@H](NC1=O)C(=O)O[C@H]2C is reported as 16 mg/L (MSSA ATCC 29213; TFA salt).
For CC(C)C[C@H](NC(=O)[C@H](CC(C)C)NC(=O)[C@H](CCCCN)NC(=O)[C@H](CC(C)C)NC(=O)[C@H](CC(C)C)NC(=O)[C@H](CCCCN)NC(=O)[C@H](CCCCN)NC(=O)[C@H](CC(C)C)NC(=O)[C@H](CC(C)C)NC(=O)[C@H](CCCCN)NC(=O)[C@H](CCCCN)NC(=O)[C@H](CC(C)C)NC(=O)[C@H](CC(C)C)NC(=O)[C@H](CCCCN)NC(=O)[C@@H](N)CC(C)C)C(N)=O, the MIC was 3.7 µM (MRSA AMC 201, RPMI medium; 24 h, 37 °C).
CCC[C@@H]1NC(=O)[C@@H]([C@@H](C)O)NC(=O)CNC(=O)[C@H](CC(=O)O)NC(=O)CNC(=O)[C@H](CC(=O)O)NC(=O)CNC(=O)[C@H]2CCCCN2C(=O)[C@@H](NC(=O)[C@H](CC(=O)O)NC(=O)/C=C/CCCCCCCCCC(C)C)CNC(=O)[C@@H]2CCCN2C1=O has an MIC of 4 mg/L (MRSA USA300; added: Ca2+ 10 mM).
CC[C@H](C)[C@H](NC(=O)[C@H](CCCCN)NC(=O)[C@@H]1CCCN1C(=O)[C@@H](NC(=O)[C@H](CC(C)C)NC(=O)[C@H](CCCCN)NC(=O)[C@H](CC(C)C)NC(=O)[C@@H](NC(=O)[C@H](CO)NC(=O)CNC(=O)[C@H](Cc1ccccc1)NC(=O)[C@@H](N)Cc1ccccc1)C(C)C)[C@@H](C)CC)C(=O)N[C@@H](CC(C)C)C(N)=O gave an MIC of 3.12 µM (broth microdilution; USA300 MRSA).
CN[C@@H]1[C@H](O)[C@H](NC)[C@H]2O[C@]3(O)[C@H](O[C@@H]2[C@H]1O)O[C@H](C)C[C@@]3(O)CNCc1ccc(OC(F)(F)F)cc1 gave an MIC of 100 to 200 mg/L (MRSA NRS70).
CCCCCCCCCNS(=O)(=O)c1ccc(-n2nnc(C(C)=NNC(=N)N)c2C)cc1 has an MIC of 1 mg/L (microbial growth, broth dilution; MRSA USA300; drug-resistant strain).
COc1cccc(C2Nc3ccccc3C3=[O+][Cu-2]4([Cl])[O]c5c(cccc5OC)C=[N+]4N32)c1O (centres unmarked) gave an MIC of 16 mg/L (broth microdilution; MRSA clinical isolate SA 3202; 24 h, 37 °C).
NC(=O)c1c(F)ccc(OCc2nc3cc(Cl)cnc3s2)c1F has an MIC of 1 mg/L (microbial growth, broth dilution; ATCC29213).
For CC[C@H](C)[C@H](NC(=O)[C@H](NC(=O)[C@@H](CCC(N)=O)NC(=O)[C@@H](N)COC(=O)[C@@H](NC(=O)[C@@H](Cc1ccccc1)NC)[C@@H](C)CC)[C@@H](C)CC)C(=O)N[C@@H](CO)C(=O)N[C@H]1C(=O)N[C@@H](C)C(=O)N[C@@H](C2CCCCC2)C(=O)N[C@@H]([C@@H](C)CC)C(=O)O[C@H]1C, the MIC was 0.5 mg/L (broth microdilution; ATCC 700698, MRSA, brain heart infusion broth; 16 h, 37 °C).
CC[C@H](C)[C@H](NC(=O)CNC(=O)[C@H](CCCCN)NC(=O)[C@H](C)NC(=O)[C@H](CCC(=O)O)NC(=O)[C@H](Cc1ccccc1)NC(=O)[C@H](CO)NC(=O)[C@H](CC(C)C)NC(=O)[C@@H](NC(=O)[C@H](CC(=O)O)NC(=O)[C@H](C)NC(=O)[C@@H](NC(=O)[C@@H](N)C(C)C)[C@@H](C)O)C(C)C)C(=O)N[C@@H](C)C(=O)N[C@H](C(=O)N[C@@H](CC(N)=O)C(=O)N[C@@H](Cc1c[nH]cn1)C(=O)N[C@@H](CO)C(=O)N[C@@H](C)C(=O)N[C@H]1CSSC[C@@H]2NC(=O)[C@H](C(C)C)NC(=O)CNC(=O)[C@H](CC(N)=O)NC(=O)[C@H](CCC(N)=O)NC(=O)[C@H](C)NC(=O)[C@H](CO)NC(=O)CNC(=O)CNC(=O)[C@H](CCCCN)NC(=O)[C@H](CCCCN)NC(=O)[C@H](CCCNC(=N)N)NC(=O)[C@H](CC(C)C)NC(=O)[C@H](C)NC(=O)[C@H]([C@@H](C)CC)NC(=O)[C@H](CSSC[C@@H](C(=O)N[C@@H](CCCNC(=N)N)C(=O)N[C@@H](CC(N)=O)C(=O)O)NC(=O)[C@H](C(C)C)NC2=O)NC(=O)[C@H](Cc2c[nH]cn2)NC(=O)[C@H](CC(C)C)NC(=O)[C@H](C)NC1=O)C(C)C gave an MIC of > 100 µM (broth microdilution; KCTC 1621; 16 h, 37 °C).
With COc1ccc2ccc3c(c2c1)C=[N+]1C2CCCCC2[N+]2=Cc4cccc(OC)c4[O][Au-]21[O]3.F[P-](F)(F)(F)(F)F (centres unmarked) the MIC was 20 µM (bacterial growth, broth microdilution; vancomycin-intermediate; 24 h).
NC[C@@H]1O[C@H](O[C@H]2[C@@H](O)[C@H](O[C@@H]3[C@@H](O)[C@H](N)C[C@H](N)[C@H]3O[C@H]3O[C@H](CO)[C@@H](SCCF)[C@H](O)[C@H]3N)O[C@@H]2CO)[C@H](N)[C@@H](O)[C@@H]1O gave an MIC of 4 to 8 mg/L (methicillin-resistant, AAC(6') ANT(4',4'') APH(3')).
The MIC of CC[C@H](C)[C@H](NC(=O)[C@H](CCCN)NC(=O)[C@H](CC(N)=O)NC(=O)[C@H](Cc1c[nH]c2ccccc12)NC(=O)[C@H](Cc1ccccc1)NC(=O)[C@H](CCCN)NC(=O)[C@H](CCCCNC(=N)N)NC(=O)[C@H](CC(C)C)NC(=O)[C@H](Cc1c[nH]c2ccccc12)NC(=O)[C@H](CCCN)NC(=O)[C@H](CCCCNC(=N)N)NC(=O)[C@H](CC(C)C)NC(=O)CNC(C)=O)C(=O)N[C@@H](CCCN)C(=O)N[C@@H](CCCCNC(=N)N)C(N)=O is reported as 3.13 µM (12 h, added: plasma pretreatment).
The MIC of CC(=O)N[C@@H](CCCNC(=N)N)C(=O)N[C@@H](Cc1c[nH]c2ccccc12)C(=O)N[C@@H](CCCNC(=N)N)C(=O)N[C@@H](Cc1c[nH]c2ccccc12)C(=O)N[C@@H](Cc1c[nH]c2ccccc12)C(=O)N[C@@H](CCCCN)C(=O)N1CCC[C@H]1C(=O)N[C@H](C(N)=O)C(C)C is reported as 11.3 to 22.7 µM (MRSA ATCC 33591, MEM medium; overnight, 37 °C).
CC[C@H](C)[C@H](NC(=O)[C@H](CCC(N)=O)NC(=O)[C@@H]1CCCN1C(=O)[C@@H](NC(=O)[C@@H](NC(=O)[C@H](Cc1ccccc1)NC(=O)[C@H](C)NC(=O)[C@H](C)NC(=O)[C@H](CC(C)C)NC(=O)[C@H](CCCNC(=N)N)NC(=O)[C@H](C)NC(=O)[C@H](CC(C)C)NC(=O)[C@H](CC(C)C)NC(=O)CNC(=O)[C@@H](NC(=O)[C@@H](N)Cc1ccccc1)C(C)C)C(C)C)[C@@H](C)CC)C(=O)N[C@H](C(=O)N[C@@H](CCCCN)C(=O)N[C@@H](CCCNC(=N)N)C(=O)N[C@@H](Cc1ccccc1)C(=O)N[C@@H](CCC(N)=O)C(=O)N[C@@H](CCCCN)C(=O)N[C@@H](CCCCN)C(=O)N[C@@H](CC(N)=O)C(N)=O)C(C)C gave an MIC of 1.56 to 3.12 µM (broth microdilution; MRSA ATCC 33592).
CN1C(=O)[C@@H]2NC(=O)[C@@H]3NC(=O)[C@@H](c4ccc(O)cc4)NC(=O)[C@H](NC(=O)C(NCc4cc(C(F)(F)F)cc(C(F)(F)F)c4)c4ccc(O)cc4)Cc4c[nH]c5cc(ccc45)-c4cc3cc(c4O)Oc3ccc(cc3)C[C@H]1C(=O)N[C@@H](C(=O)O)c1ccc(O)c(c1)Oc1ccc2cc1 (some centres unmarked) has an MIC of 8 mg/L (ATCC 33591 MRSA, Mueller-Hinton broth).
With CC(C)C[C@H](NC(=O)[C@H](CC(C)C)NC(=O)[C@H](CCCNC(=N)N)NC(=O)CCCCCNC(=O)/C=C/c1ccc(O)c(O)c1)C(=O)N[C@@H](CCCNC(=N)N)C(N)=O the MIC was 60 µM (broth microdilution; ATCC 25923; 24 h, 37 °C).
For CC[C@H](C)[C@H](NC(=O)[C@H](CCCCN)NC(=O)[C@H](CCCCN)NC(=O)[C@H](Cc1ccccc1)NC(=O)[C@H](Cc1ccccc1)NC(=O)[C@H](CCCCN)NC(=O)[C@H](CCCCN)NC(=O)[C@H](Cc1ccccc1)NC(=O)[C@H](CCCNC(=N)N)NC(=O)[C@@H](N)CCCCN)C(=O)N[C@@H](CCCCN)C(=O)N[C@@H](CCCCN)C(=O)N[C@@H](CO)C(=O)N[C@H](C(=O)N[C@@H](CCCCN)C(=O)N[C@@H](CCCCN)C(=O)N[C@@H](CCCNC(=N)N)C(=O)N[C@H](C(=O)N[C@@H](CCCCN)C(=O)N[C@@H](CCCCN)C(=O)N[C@@H](CC(C)C)C(=O)N[C@@H](Cc1ccccc1)C(=O)N[C@@H](CCCCN)C(=O)N[C@@H](CCCCN)C(=O)N1CCC[C@H]1C(=O)N[C@@H](CCCNC(=N)N)C(=O)N[C@H](C(=O)N[C@H](C(=O)N1CCC[C@H]1C(=O)N[C@H](C(=O)N[C@@H](CO)C(=O)N[C@H](C(=O)N1CCC[C@H]1C(=O)N[C@@H](Cc1ccccc1)C(=O)O)[C@@H](C)CC)[C@@H](C)CC)[C@@H](C)CC)C(C)C)C(C)C)C(C)C, the MIC was 16 mg/L (ATCC 29213; 20 h).
The MIC of CN[C@H](CC(C)C)C(=O)N[C@H]1C(=O)N[C@@H](CC(N)=O)C(=O)N[C@H]2C(=O)N[C@H]3C(=O)N[C@H](C(=O)N[C@H](C(=O)O)c4cc(O)cc(O)c4-c4cc3ccc4O)[C@H](O)c3ccc(c(Cl)c3)Oc3cc2cc(c3O[C@@H]2O[C@H](CO)[C@@H](O)[C@H](O)[C@H]2O[C@H]2C[C@](C)(NCc3ccc(OCc4cn(CCOCCOCCOCCC(=O)N[C@H](C(=O)N[C@@H](CCN)C(=O)N[C@H]5CCNC(=O)[C@H]([C@@H](C)O)NC(=O)[C@H](CCN)NC(=O)[C@H](CCN)NC(=O)[C@H](CC(C)C)NC(=O)[C@@H](CC(C)C)NC(=O)[C@H](CCN)NC5=O)[C@@H](C)O)nn4)c(OC)c3)[C@H](O)[C@H](C)O2)Oc2ccc(cc2Cl)[C@H]1O is reported as 0.5 mg/L (broth microdilution; MSSA ATCC 29213; 20 to 24 h, 37 °C, 0.002% polysorbate 80).
With c1ccc(CCNC2CCCc3c2[nH]c2ccc(C4CCCCC4)cc32)cc1 (centres unmarked) the MIC was 2 mg/L (broth microdilution; Mu50 VISA, cation-adjusted Mueller-Hinton broth).
With CC(C)C[C@@H]1NC(=O)[C@H](C)NC(=O)[C@H](NC(=O)[C@H](CO)NC(=O)[C@@H](CCCCN)NC(=O)[C@@H](C)NC(=O)[C@@H](N)Cc2ccccc2)[C@H](C(N)=O)OC(=O)[C@H](CC(C)C)NC1=O the MIC was 16 to 32 mg/L (MSSA ATCC 29213; TFA salt).
The MIC of CCCCCCCCCCCCCCCCCCCCCCSCC1OC(OC2C(N)CC(N)C(OC3OC(CN)C(O)CC3N)C2O)C(O)C(N)C1O (centres unmarked) is reported as > 150 mg/L (NorA).
Oc1ccccc1C1Nc2ccccc2C2=[O+][Cu-2]3([Cl])[O]c4ccccc4C=[N+]3N21 (centres unmarked) gave an MIC of 8 mg/L (broth microdilution; MRSA clinical isolate SA 3202; 24 h, 37 °C).
COc1ccc2ccc3c(c2c1)C=[N+]1C2CCCCC2[N+]2=Cc4ccc(-c5ccccc5)cc4[O][Au-]21[O]3.F[P-](F)(F)(F)(F)F (centres unmarked) gave an MIC of > 20 µM (bacterial growth, broth microdilution; vancomycin-intermediate; 24 h).
With CCCCCCCCCCCCCC(=O)N[C@H](CCN)C(=O)N[C@H](C(=O)N[C@@H](CCN)C(=O)N[C@@H](CC(C)C)C(=O)N[C@H]1CCNC(=O)[C@H](CC(=O)O)NC(=O)[C@H](C(C)C)NC(=O)[C@@H](Cc2ccc(O)cc2)NC(=O)[C@H](CCN)NC(=O)[C@H](CC(C)C)NC(=O)[C@@H](Cc2ccccc2)NC1=O)[C@@H](C)O the MIC was 4 mg/L (broth microdilution; BNCC 186335).
With CCCCCCCCN1C(=O)/C(=N\NC(=N)N)c2cc(C)ccc21 the MIC was 6 mg/L (broth microdilution; BAA41 MRSA; 18 h, 37 °C).
CCO[C@H]1[C@H](O)[C@@H](N)[C@@H](O[C@H]2[C@H](O[C@@H]3O[C@H](CO)[C@@H](O[C@H]4O[C@@H](CN)[C@@H](O)[C@H](O)[C@H]4N)[C@H]3O)[C@@H](O)[C@H](N)C[C@@H]2N)O[C@@H]1CO gave an MIC of 8 to 16 mg/L (broth microdilution; MRSA isolate AG 045).
